Experimental data of several laboratories.
Each line is one published result; not all experiments were run side by side. Several values in a cell are separate wells, animals, samples, runs or records. Numbers after ± are the reported error. Converted amounts (≈) assume the structure as drawn.

CCCCCCCCCCCC(=O)OC[C@H]1O[C@@H](n2cc(C)c(=O)[nH]c2=O)C[C@@H]1OC(=O)c1ccc(C(C)(C)C)cc1 — MIC (Salmonella enterica serovar Typhi; broth microdilution): 0.5 µg/mL (≈ 0.855 µM)
OC(Cn1cncn1)(Cn1cncn1)c1ccc(F)cc1F — OD600 (Saccharomyces cerevisiae; cell growth; Pdr5 deleted, Cdr1 overexpressed; 2^5.907 µg/mL): 0.333 and 0.453 and 0.452
Nc1ncnc2c([C@@H]3N[C@H](CO)[C@@H](O)[C@H]3O)c[nH]c12 — IC50 (vesicular stomatitis virus; viral replication; Vero 76): 14.9 µM
Nc1nc(N)c2nnn([C@@H]3C(F)=C(CO)[C@@H](O)[C@H]3O)c2n1 — EC50 (influenza virus; viral cytopathic effect, MTT; MDCK; 72 h): > 100 µM
Nc1ncc(Br)c2c1ncn2[C@@H]1C=C(CO)[C@@H](O)[C@H]1O — IC90 (vesicular stomatitis virus; viral replication; wild type GFP reporter): < 1 µM
Nc1nc(O)c2ncn(COC(CO)CO)c2n1 — EC50 (vesicular stomatitis virus; viral replication; HEL): > 100 µM
O=c1[nH]cnc2c1nnn2[C@@H]1C(F)=C(CO)[C@@H](O)[C@H]1O — EC50 (influenza virus; viral cytopathic effect, MTT; MDCK; 72 h): > 100 µM
O=C(NNc1ccc(F)c(F)c1)c1nnc(CC23CC4CC(CC(C4)C2)C3)o1 — EC50 (Fusarium graminearum; fungal growth, inhibitor): 0.92 ± 0.03 µg/mL
O=c1[nH]c(=O)n([C@H]2C[C@H](O)[C@@H](CO)O2)cc1/C=C/Br — EC50 (vesicular stomatitis virus; viral replication; HEL): > 250 µM
O=C(NNc1cc(F)ccc1F)c1nnc(CC23CC4CC(CC(C4)C2)C3)o1 — EC50 (Fusarium graminearum; fungal growth, inhibitor): 1.6 ± 0.09 µg/mL
CNc1ncnc2c1nnn2[C@@H]1C(F)=C(CO)[C@@H](O)[C@H]1O — EC50 (influenza virus; viral cytopathic effect, MTT; MDCK; 72 h): > 100 µM
O=C(NNc1cccc(Cl)c1)c1nnc(CC23CC4CC(CC(C4)C2)C3)o1 — inhibition (Fusarium graminearum; fungal growth, inhibitor; 50 µg/mL): 74.2 ± 0.7%
COc1cc(NC(=O)Cn2ccc3cc(F)c(-c4cnn(C)c4)cc32)cc(OC)c1OC — IC90 fold shift (Plasmodium falciparum; recrudescent Dd2-B2, PfATP4 V178I; flask 2; reference: Dd2-B2): 130
O=C(NCCc1ncc(C(F)(F)F)cc1Cl)c1ccccc1C(F)(F)F — inhibition (Fusarium graminearum; fungal growth, inhibitor; 50 µg/mL): 88.1 ± 2.1%
CS(=O)(=O)Nc1ncn(-c2cc(F)c(COc3ccc(OS(=O)(=O)F)cc3)c(F)c2)n1 — CFU reduction (Mycobacterium tuberculosis; time-kill; H37Rv; 10 × MIC, 10 days): 6 log10 CFU
Nc1ncnc2c1nnn2[C@@H]1C(F)=C(CO)[C@@H](O)[C@H]1O — EC50 (influenza virus; viral cytopathic effect, MTT; MDCK; 72 h): > 100 µM
O=C(NNc1cccc(Cl)c1)c1nnc(C23CC4CC(CC(C4)C2)C3)o1 — EC50 (Fusarium graminearum; fungal growth, inhibitor): 3.77 ± 0.28 µg/mL

Repeated from above:
COc1cc(NC(=O)Cn2ccc3cc(F)c(-c4cnn(C)c4)cc32)cc(OC)c1OC — IC90 fold shift (Plasmodium falciparum; recrudescent Dd2-B2, PfATP4 V178I; flask 2; reference: Dd2-B2): 130
O=C(NCCc1ncc(C(F)(F)F)cc1Cl)c1ccccc1C(F)(F)F — inhibition (Fusarium graminearum; fungal growth, inhibitor; 50 µg/mL): 88.1 ± 2.1%
